Measured values gathered from unrelated publications.
Lines come from different studies, so protocols differ.
PIK3CA with p85 alpha: Phosphatidylinositol 4,5-bisphosphate 3-kinase catalytic subunit alpha isoform, with p85 alpha (PIK3CA, Homo sapiens, UniProt P42336)
Sequence of UniProt P42336 (whole entry, unmodified, looked up): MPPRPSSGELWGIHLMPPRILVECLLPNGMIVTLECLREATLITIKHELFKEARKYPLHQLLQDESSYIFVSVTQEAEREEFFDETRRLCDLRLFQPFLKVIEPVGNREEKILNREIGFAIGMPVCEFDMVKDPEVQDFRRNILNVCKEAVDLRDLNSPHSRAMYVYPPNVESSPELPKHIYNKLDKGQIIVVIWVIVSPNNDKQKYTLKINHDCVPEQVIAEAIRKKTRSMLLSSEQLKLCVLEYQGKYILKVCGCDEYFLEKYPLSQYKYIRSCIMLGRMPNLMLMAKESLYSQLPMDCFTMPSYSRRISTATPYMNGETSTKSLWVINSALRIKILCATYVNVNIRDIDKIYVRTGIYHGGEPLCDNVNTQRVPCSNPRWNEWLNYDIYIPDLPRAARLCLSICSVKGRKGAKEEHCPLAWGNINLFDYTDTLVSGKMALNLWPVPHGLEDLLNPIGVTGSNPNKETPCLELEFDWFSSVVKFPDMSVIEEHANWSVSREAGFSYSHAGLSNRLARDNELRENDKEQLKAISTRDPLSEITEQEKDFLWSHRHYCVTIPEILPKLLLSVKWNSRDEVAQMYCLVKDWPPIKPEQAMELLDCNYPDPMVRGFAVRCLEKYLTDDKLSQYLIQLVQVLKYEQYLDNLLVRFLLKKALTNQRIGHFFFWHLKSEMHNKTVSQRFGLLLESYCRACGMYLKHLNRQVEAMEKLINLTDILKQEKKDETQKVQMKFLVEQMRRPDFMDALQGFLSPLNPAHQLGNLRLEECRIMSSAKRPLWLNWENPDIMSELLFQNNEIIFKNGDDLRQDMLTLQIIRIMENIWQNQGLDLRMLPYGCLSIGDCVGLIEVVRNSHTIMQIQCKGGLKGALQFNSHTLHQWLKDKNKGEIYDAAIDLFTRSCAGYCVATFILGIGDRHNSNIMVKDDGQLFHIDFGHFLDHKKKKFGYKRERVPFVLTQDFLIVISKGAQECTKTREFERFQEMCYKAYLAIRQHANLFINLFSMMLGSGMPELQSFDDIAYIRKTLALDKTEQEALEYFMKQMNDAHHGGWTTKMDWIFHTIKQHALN
UCHL1: Ubiquitin carboxyl-terminal hydrolase isozyme L1 (UCHL1, Homo sapiens, UniProt P09936)
Sequence of UniProt P09936 (whole entry, looked up): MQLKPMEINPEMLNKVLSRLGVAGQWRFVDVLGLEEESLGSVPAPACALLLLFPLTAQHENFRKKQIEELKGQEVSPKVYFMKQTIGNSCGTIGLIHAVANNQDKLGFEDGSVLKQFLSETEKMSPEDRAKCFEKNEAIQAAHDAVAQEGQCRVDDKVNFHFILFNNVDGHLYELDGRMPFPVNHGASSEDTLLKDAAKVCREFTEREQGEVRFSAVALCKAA

Structure (SMILES)	target	assay	setting	scale	endpoint	result
CN(C)C1CCN(CC#Cc2nn(C3CCCC3)c3nc(NCc4ccccc4)ncc23)C1 (stereo not shown)	PIK3CA with p85 alpha	enzyme activity, inhibitor, Z'-LYTE	10000 nM		inhibition	-2%
Cc1ccc(NC(=O)c2ccc(C)c(C(F)(F)F)c2)cc1C#Cc1nn(C2CCC(O)CC2)c2ncnc(N)c12 (stereo not shown)	Phosphatidylinositol 4,5-bisphosphate 3-kinase catalytic subunit alpha isoform, with p85 alpha (PIK3CA, Homo sapiens, UniProt P42336, H1047R)	enzyme activity, inhibitor	10 µM, p110a(H1047R)/p85a)(h human, together with: ATP 10 µM		remaining activity	89%
COc1cc(-c2cncc3c2CN(C)Cc2cc(N4CCNCC4)ccc2-3)cc(OC)c1OC	PIK3CA with p85 alpha	kinase activity	1 µM, p110a/p85a)(h human, together with: ATP 10 µM	reference: DMSO	remaining activity	97%
Cc1nc(NC(=O)N2CCCC2)sc1-c1csc(C(C)(C)C)n1	PIK3CA (Homo sapiens, UniProt P42336, Q859A)		3 µM	reference: wild type	inhibition difference	9%
O=C(CSc1nc2nccnc2c(=O)n1CCc1ccccc1)Nc1nccs1	Phosphatidylinositol 4,5-bisphosphate 3-kinase catalytic subunit alpha isoform, with p55 gamma (PIK3CA, Homo sapiens, UniProt P42336)	kinase activity, inhibitor	10 µM, together with: PIK3R3 complex		inhibition	27%
COc1cc(Cl)c(C(=O)N[C@@H](CN[C@H]2CC[C@@H](N)CC2)Cc2ccc(C#N)cc2)cc1-c1ccc(CN[C@H](C)c2ccc(C)cc2)o1	PIK3CA with p85 alpha	enzyme activity, KinaseProfiler panel	1 µM		remaining activity	96%
O=C(NC1CCC1)c1ccc2nc(-c3cccc(NS(=O)(=O)NCCN4CCCCC4)c3)cn2c1	PIK3CA (Homo sapiens, UniProt P42336, E545K)	enzyme activity	10 µM		remaining activity	75%
Cc1ccc(C(=O)NCc2ccsc2)cc1C#Cc1cn(C(C)C)c2ncnc(N)c12	Phosphatidylinositol 4,5-bisphosphate 3-kinase catalytic subunit alpha isoform, with p65 alpha (PIK3CA, Homo sapiens, UniProt P42336)	kinase activity	1 µM, together with: ATP at Km		remaining activity	100%
C=CC(=O)N1CCC(C(=O)Nc2ccc(CC)cc2)CC1	UCHL1	covalent, intact protein LC-MS	12.5 µM		labelling	10.3%
C=CC(=O)N1CCC(COCC(=O)N2CCN(c3nc(-c4cnc(N)nc4C(F)F)nc(N4CCOC[C@@H]4C)n3)CC2)CC1	PIK3CA (Homo sapiens, UniProt P42336, H1047Y)	KINOMEscan	1 µM		remaining binding	0.15%
CS(=O)(=O)Nc1cccc(-c2csc(NC(=O)CSc3nc4nccnc4c(=O)n3CCc3ccccc3)n2)c1	Phosphatidylinositol 4,5-bisphosphate 3-kinase catalytic subunit alpha isoform, with p85 alpha (PIK3CA, Homo sapiens, UniProt P42336, E542K)		10 µM, E542K with PIK3R1		inhibition	6%
[2H]c1cc(C)c(NC(=O)c2cnc(Nc3cc(N4CCCCC4)nc(C)n3)s2)c(Cl)c1	Phosphatidylinositol 4,5-bisphosphate 3-kinase catalytic subunit alpha isoform, with PIK3R1 (PIK3CA, Homo sapiens, UniProt P42336)		0.01 µM		inhibition	30 to 90%
CC#CC(=O)N1CCN(S(=O)(=O)c2cccs2)CC1	UCHL1	covalent, intact protein LC-MS	12.5 µM		labelling	9.64%

For quick reference, copied from above:
Structure (SMILES)	target	assay	setting	scale	endpoint	result
CS(=O)(=O)Nc1cccc(-c2csc(NC(=O)CSc3nc4nccnc4c(=O)n3CCc3ccccc3)n2)c1	Phosphatidylinositol 4,5-bisphosphate 3-kinase catalytic subunit alpha isoform, with p85 alpha (PIK3CA, Homo sapiens, UniProt P42336, E542K)		10 µM, E542K with PIK3R1		inhibition	6%
Cc1nc(NC(=O)N2CCCC2)sc1-c1csc(C(C)(C)C)n1	PIK3CA (Homo sapiens, UniProt P42336, Q859A)		3 µM	reference: wild type	inhibition difference	9%
